# Experimental data of several laboratories.
# Compare with care: the assays were run in different laboratories. ± marks the error that the study gave.
# APP: Amyloid-beta precursor protein (APP, Homo sapiens, UniProt P05067)
# Tripartite terminase subunit 3 C-terminal nuclease domain: Tripartite terminase subunit 3, C-terminal nuclease domain (Human betaherpesvirus 5, UniProt P16732)
# nanA: Sialidase A (nanA, Streptococcus pneumoniae, UniProt P62575)
SMILES,tested on,assay,test system,setting,measurement,result
COc1ccc(S(=O)(=O)Oc2ccc3c(c2)Oc2nc4c(c(N)c2C3c2cccc(OC)c2)CCCC4)cc1 (centres unmarked),APP,"Aβ42 self-aggregation, inhibitor, thioflavin T fluorescence",,1 µM,inhibition,15%
CN(CCN1CCC(OC(=O)Nc2ccccc2-c2ccccc2)CC1)C(=O)c1ccc(CN2CCC(C(N)=O)CC2)cc1,rat α2 adrenoceptor non-selective,radioligand binding,,"1 µM, together with: [3H]RX821002 0.5 nM",inhibition,11%
CCN1CCc2c(sc3[nH]c(=O)n(O)c(=O)c23)C1,Tripartite terminase subunit 3 C-terminal nuclease domain,"endonuclease activity, ELISA",,"20 µM, together with: dsDNA",inhibition,88%
COc1cc(/C=C/C(=O)CC(=O)/C=C/c2ccc(O)c(OC)c2)ccc1O,APP,"Aβ42 self-aggregation, inhibitor, thioflavin T fluorescence",,1 µM,inhibition,15%
O=C(Nc1cccc(C(=O)Nc2ccc3c(c2)B(O)OC3)c1)c1ccccc1,"Genome polyprotein, NS2B-NS3 protease (dengue virus type 2, UniProt P29990)","enzyme activity, FRET",dengue virus serotype 2,"50 µM, together with: substrate 50 µM",inhibition,35 ± 3%
Cc1ccc(S(=O)(=O)Oc2ccc3c(c2)Oc2nc4c(c(N)c2C3c2ccc(Cl)c(Cl)c2)CCCC4)cc1 (centres unmarked),APP,"Aβ42 self-aggregation, inhibitor, thioflavin T fluorescence",,1 µM,inhibition,14%
O=C(Nc1ccc2c(c1)B(O)OC2)c1cccc(OCc2ccccc2)n1,"Genome polyprotein, NS2B-NS3 protease (dengue virus type 2, UniProt P29990)","enzyme activity, FRET",dengue virus serotype 2,"50 µM, together with: substrate 50 µM",inhibition,24 ± 7%
Cc1c(C(=O)O)sc2[nH]c(=O)n(O)c(=O)c12,Tripartite terminase subunit 3 C-terminal nuclease domain,"endonuclease activity, ELISA",,"20 µM, together with: dsDNA",inhibition,91%
COc1cc(Nc2ncc(F)c(Nc3ccc4c(n3)NC(=O)C(C)(C)O4)n2)cc(OC)c1OC,"CSNK2A1 (Homo sapiens, UniProt P68400)",KINOMEscan,,10 µM,inhibition,100%
Nc1ncnc2c1ncn2[C@@H]1O[C@H](C[C@@H](N)CC[C@H](N)C(=O)O)[C@@H](O)[C@H]1O,"Genome polyprotein, NS5 methyltransferase domain (Zika virus, UniProt Q32ZE1)","NS5 enzyme activity, inhibitor",,12.5 µM,inhibition,79.8%
COc1ccc(N2C(=O)N(c3c(C)cccc3Cl)Cc3cnc(Nc4ccc(C5CCN(C)CC5)cc4OC)nc32)nc1,"PASK (Homo sapiens, UniProt Q96RG2)",kinase activity,,0.5 µM,inhibition,-0.48%
O=C(Nc1ccc2c(c1)B(O)OC2)c1ccc(N2CCOCC2)cc1,"Genome polyprotein, NS2B-NS3 protease (West Nile virus, UniProt P06935)","enzyme activity, FRET",,"50 µM, together with: substrate 50 µM",inhibition,≤ 10%
COC1=C(N)C(=O)c2nc(-c3nc(C(=O)O)c(C)c(-c4ccc(OC)c(OC)c4O)c3N)ccc2C1=O,"SENP1 (Homo sapiens, UniProt Q9P0U3)","RanGAP1-SUMO1 isopeptide cleavage, SDS-PAGE",,"2 µM, together with: SENP1 5 nM",inhibition,inhibited
CC(=O)N[C@H]1[C@H]([C@H](O)[C@H](O)CO)OC(C(=O)O)=C[C@@H]1O,nanA,,,"8 µM, pH 6",inhibition,68.3 ± 2.7%
O=C(Nc1ccc2c(c1)B(O)OC2)c1ccc(C(F)(F)F)cc1,"Genome polyprotein, NS2B-NS3 protease (West Nile virus, UniProt P06935)","enzyme activity, FRET",,"50 µM, together with: substrate 50 µM",inhibition,11 ± 6%
c1ccc(C(NCCNC(c2ccccc2)c2ccccc2)c2ccccc2)cc1,"Cyclin-dependent kinase 3, with cyclin E (CDK3, Homo sapiens, UniProt Q00526)",enzyme activity,,"10 µM, Eurofins selectivity panel",inhibition,-1%
O=C(Nc1cnccc1Cl)N1CCN(Cc2ccc3c(c2)OC(F)(F)O3)CC1,"RXRA (Homo sapiens, UniProt P19793)","radioligand binding, inhibitor",,"50 µM, human, together with: [3H]9-cis-retinoic acid",inhibition,11%
Nc1ccncc1,"Voltage-gated potassium channel, KQT; KCNQ2(Kv7.2)/KCNQ3(Kv7.3) (KCNQ3/KCNQ2, Homo sapiens, UniProt O43525+O43526)","ion current, antagonist, automated patch clamp",HEK293,3 µM,inhibition,-2%
O=S(=O)(Nc1ccc2c(c1)B(O)OC2)c1ccc(Cl)cc1,"Genome polyprotein, NS2B-NS3 protease (West Nile virus, UniProt P06935)","enzyme activity, FRET",,"50 µM, together with: substrate 50 µM",inhibition,≤ 10%
C[C@H](C(=O)N[C@H]1COc2ccccc2[C@@H]1S(C)(=O)=O)c1ccc(F)cc1,"Na+/K+-ATPase, pig heart",enzyme activity,,"10 µM, Eurofins selectivity panel",inhibition,-4%
O=C1c2ccccc2C(c2ccccc2)C(=O)N1O (centres unmarked),Tripartite terminase subunit 3 C-terminal nuclease domain,"endonuclease activity, ELISA",,"20 µM, together with: dsDNA",inhibition,28%
CC[C@H](C)[C@H](NC(=O)[C@@H](NC(=O)[C@H](N)Cc1ccccc1)C(C)C)C(=O)N[C@@H](C)C(N)=O,APP,"amyloid-beta aggregation, thioflavin T fluorescence",,"0.5 µM, 24 h, together with: 2 µM amyloid-beta",inhibition,87.4%
O=C(Nc1cccc(B(O)O)c1)c1cccc(OCc2ccccc2)c1,"Genome polyprotein, NS2B-NS3 protease (West Nile virus, UniProt P06935)","enzyme activity, FRET",,"50 µM, together with: substrate 50 µM",inhibition,≤ 10%
CC[N+]1(CC)CCN(c2ccccc2)CC1,"CHRNA9 (Homo sapiens, UniProt Q9UGM1)","antagonist, two-electrode voltage clamp",Xenopus laevis oocytes,"30 µM, with RAPSYN, together with: acetylcholine 60 µM",inhibition,90%
O=C1c2ccccc2C(c2ccccc2)C(=O)N1OCc1ccccc1 (centres unmarked),Tripartite terminase subunit 3 C-terminal nuclease domain,"endonuclease activity, ELISA",,"20 µM, together with: dsDNA",inhibition,5.1%
CC12C(=O)OC(=O)C1(C)C1CCC2O1 (centres unmarked),"Serine/threonine-protein phosphatase 5 (Homo sapiens, UniProt P53041)","enzyme activity, inhibitor, DiFMUP",,concentration not given,inhibition,inhibited
CN(C(=O)n1cnc(-c2ccc[n+]([O-])c2)c1)C1CCCCC1,"MC3R (Homo sapiens, UniProt P41968)",radioligand binding,,10 µM,inhibition,0%
CN(C)C1(CNC(=O)c2ccc3c(c2)CCN3C(=O)c2ccccc2)CCOCC1,"SLC6A9 (Homo sapiens, UniProt P48067)","transport current, inhibitor, two-electrode voltage clamp",Xenopus laevis oocytes,10 µM,inhibition,~6%
O=C(Nc1ccc(S(=O)(=O)N2CCC(Cl)CC2)cc1)c1ccc([N+](=O)[O-])o1,rat GABAA receptor benzodiazepine site,flunitrazepam radioligand binding,brain,10 µM,inhibition,21%
O=C(Nc1ccc2c(c1)B(O)OC2)c1cccc(Oc2ccccc2)c1,"Genome polyprotein, NS2B-NS3 protease (West Nile virus, UniProt P06935)","enzyme activity, FRET",,"50 µM, together with: substrate 50 µM",inhibition,≤ 10%
CC(=O)N[C@@H]1C(N=[N+]=[N-])C[C@](OCC2O[C@@H](Oc3ccc([N+](=O)[O-])cc3)C(O)C(O)[C@H]2O)(C(=O)O)OC1[C@H](O)[C@H](O)CO (some centres unmarked),nanA,,,"8 µM, pH 6",inhibition,11.6 ± 6.7%
O=C(Nc1ccc2c(c1)B(O)OC2)c1ccc(OCc2ccc(Cl)cc2)cc1,"Genome polyprotein, NS2B-NS3 protease (West Nile virus, UniProt P06935)","enzyme activity, FRET",,"50 µM, together with: substrate 50 µM",inhibition,≤ 10%
O=c1[nH]c2sc3c(c2c(=O)n1O)CCCC3,Tripartite terminase subunit 3 C-terminal nuclease domain,"endonuclease activity, ELISA",,"20 µM, together with: dsDNA",inhibition,100%
O=C(Nc1cccnn1)N1CCC(=Cc2cccc(Oc3ccc(C(F)(F)F)cn3)c2)CC1,"dopamine D4.2 receptor, human",binding,,"10 µM, together with: [3H]spiperone",inhibition,5%
CC1(C)CCC2=C(O1)c1ccccc1C(=O)C2=O,human coronavirus OC43,virus-induced cell killing,MRC-5,screen,maximum inhibition,17.9%
Nc1c2c(nc3c1C(c1cccc([N+](=O)[O-])c1)c1ccc(OCC(=O)c4ccc(Cl)cc4)cc1O3)CCCC2 (centres unmarked),APP,"Aβ42 self-aggregation, inhibitor, thioflavin T fluorescence",,1 µM,inhibition,36%
Clc1ccc2c(C3CCN(CCc4c[nH]c5ccccc45)CC3)c[nH]c2c1,"PDE4D (Homo sapiens, UniProt Q08499)","enzyme activity, inhibitor",,10 µM,inhibition,6%
C/C(=C\c1csc(C)n1)[C@@H]1C[C@@H]2O[C@@H]2CCC[C@H](C)[C@H](O)[C@@H](C)C(=O)C(C)(C)[C@@H](O)CC(=O)O1,human coronavirus OC43,virus-induced cell killing,MRC-5,maximum over 10 doses,maximum inhibition,0%
Nc1c2c(nc3c1C(c1cccc([N+](=O)[O-])c1)c1ccc(OS(=O)(=O)c4ccc(F)cc4)cc1O3)CCCC2 (centres unmarked),APP,"Aβ42 self-aggregation, inhibitor, thioflavin T fluorescence",,1 µM,inhibition,21%
CN1CCN(c2cc(-c3ccncc3)c(-c3ccc4ccccc4c3)nn2)CC1,"GPR39 (Homo sapiens, UniProt O43194)","antagonist, FLIPR",,10 µM,inhibition,-7%
Cn1cc(-c2cccc(N3CCc4c(sc5c4CC(C)(C)C5)C3=O)c2CO)cc(Nc2ccncn2)c1=O,"MAPK14 (Homo sapiens, UniProt Q16539)","kinase activity, inhibitor, SelectScreen",,"1 µM, together with: ATP at apparent Km",inhibition,-2%

# A few entries again:
SMILES,tested on,assay,test system,setting,measurement,result
O=C(Nc1ccc2c(c1)B(O)OC2)c1ccc(OCc2ccc(Cl)cc2)cc1,"Genome polyprotein, NS2B-NS3 protease (West Nile virus, UniProt P06935)","enzyme activity, FRET",,"50 µM, together with: substrate 50 µM",inhibition,≤ 10%
O=c1[nH]c2sc3c(c2c(=O)n1O)CCCC3,Tripartite terminase subunit 3 C-terminal nuclease domain,"endonuclease activity, ELISA",,"20 µM, together with: dsDNA",inhibition,100%
O=C(Nc1cccnn1)N1CCC(=Cc2cccc(Oc3ccc(C(F)(F)F)cn3)c2)CC1,"dopamine D4.2 receptor, human",binding,,"10 µM, together with: [3H]spiperone",inhibition,5%
CC1(C)CCC2=C(O1)c1ccccc1C(=O)C2=O,human coronavirus OC43,virus-induced cell killing,MRC-5,screen,maximum inhibition,17.9%
